Published values collected from several papers.
A part holds a random share of what one study measured. Changes are numbered by the printed parent chain.
Chain of UniProt O95819 (whole entry, looked up): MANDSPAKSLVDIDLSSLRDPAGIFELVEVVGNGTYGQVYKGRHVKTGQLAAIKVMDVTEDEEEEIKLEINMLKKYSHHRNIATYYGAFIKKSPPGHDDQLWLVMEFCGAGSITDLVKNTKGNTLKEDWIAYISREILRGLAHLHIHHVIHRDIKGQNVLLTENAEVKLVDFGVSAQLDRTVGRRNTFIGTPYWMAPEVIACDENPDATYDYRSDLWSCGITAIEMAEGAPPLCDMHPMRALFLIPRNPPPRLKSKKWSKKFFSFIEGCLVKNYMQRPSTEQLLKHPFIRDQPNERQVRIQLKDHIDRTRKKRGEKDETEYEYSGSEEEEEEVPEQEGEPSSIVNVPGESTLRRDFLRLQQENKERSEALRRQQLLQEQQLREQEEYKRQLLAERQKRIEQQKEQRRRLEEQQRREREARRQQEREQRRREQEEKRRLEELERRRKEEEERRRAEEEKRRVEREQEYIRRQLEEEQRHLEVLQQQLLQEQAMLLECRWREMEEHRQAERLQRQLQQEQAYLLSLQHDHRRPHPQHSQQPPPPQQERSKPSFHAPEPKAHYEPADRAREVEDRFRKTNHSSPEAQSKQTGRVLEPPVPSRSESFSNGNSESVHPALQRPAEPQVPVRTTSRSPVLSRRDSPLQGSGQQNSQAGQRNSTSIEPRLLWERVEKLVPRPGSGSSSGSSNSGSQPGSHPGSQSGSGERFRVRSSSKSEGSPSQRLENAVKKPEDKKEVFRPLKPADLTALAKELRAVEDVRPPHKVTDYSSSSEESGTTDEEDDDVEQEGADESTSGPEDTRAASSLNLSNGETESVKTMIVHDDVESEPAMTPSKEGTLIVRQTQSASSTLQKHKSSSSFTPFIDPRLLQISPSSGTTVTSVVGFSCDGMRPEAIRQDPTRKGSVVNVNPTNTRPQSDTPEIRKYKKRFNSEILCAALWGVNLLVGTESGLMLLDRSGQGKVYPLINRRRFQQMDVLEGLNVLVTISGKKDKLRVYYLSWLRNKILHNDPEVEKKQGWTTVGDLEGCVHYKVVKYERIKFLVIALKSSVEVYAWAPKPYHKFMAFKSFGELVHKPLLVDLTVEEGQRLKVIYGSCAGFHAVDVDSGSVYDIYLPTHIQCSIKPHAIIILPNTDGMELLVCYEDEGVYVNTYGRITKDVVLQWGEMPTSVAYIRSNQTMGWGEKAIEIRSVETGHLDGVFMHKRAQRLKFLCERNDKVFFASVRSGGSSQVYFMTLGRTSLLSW

Study 1
Target: Sal-like protein 4, full length isoform A (SALL4, Homo sapiens, UniProt Q9UJQ4, residues 1-1053)
Chain of UniProt Q9UJQ4 (whole entry, looked up): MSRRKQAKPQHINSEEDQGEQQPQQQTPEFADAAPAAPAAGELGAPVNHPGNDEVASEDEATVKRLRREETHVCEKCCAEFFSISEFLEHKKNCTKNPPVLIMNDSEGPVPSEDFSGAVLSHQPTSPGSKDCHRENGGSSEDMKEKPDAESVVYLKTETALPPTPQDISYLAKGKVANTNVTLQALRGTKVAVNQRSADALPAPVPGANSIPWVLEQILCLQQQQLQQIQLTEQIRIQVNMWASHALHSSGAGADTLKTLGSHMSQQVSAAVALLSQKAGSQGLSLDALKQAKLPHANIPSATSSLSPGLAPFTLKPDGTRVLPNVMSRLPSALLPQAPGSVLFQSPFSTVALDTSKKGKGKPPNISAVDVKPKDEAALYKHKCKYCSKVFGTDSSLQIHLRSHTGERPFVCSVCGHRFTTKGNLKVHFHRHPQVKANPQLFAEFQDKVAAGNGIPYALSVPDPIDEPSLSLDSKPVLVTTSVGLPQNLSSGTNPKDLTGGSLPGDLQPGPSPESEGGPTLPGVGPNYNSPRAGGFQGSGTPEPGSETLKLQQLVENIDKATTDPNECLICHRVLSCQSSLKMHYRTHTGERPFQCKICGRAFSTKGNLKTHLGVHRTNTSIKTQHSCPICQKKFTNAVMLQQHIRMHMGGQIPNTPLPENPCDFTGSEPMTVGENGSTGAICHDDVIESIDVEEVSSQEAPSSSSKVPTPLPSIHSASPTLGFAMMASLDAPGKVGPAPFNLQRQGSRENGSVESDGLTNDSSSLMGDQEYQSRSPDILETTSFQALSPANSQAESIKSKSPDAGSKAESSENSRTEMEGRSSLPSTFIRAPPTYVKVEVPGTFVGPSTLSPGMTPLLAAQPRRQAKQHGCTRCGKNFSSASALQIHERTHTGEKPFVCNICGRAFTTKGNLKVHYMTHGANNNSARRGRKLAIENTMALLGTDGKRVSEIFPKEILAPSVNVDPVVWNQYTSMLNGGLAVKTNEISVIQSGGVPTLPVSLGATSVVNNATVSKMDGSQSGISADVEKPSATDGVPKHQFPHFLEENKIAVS
Technique: universal PBM
Molecule type: double-stranded DNA, one strand shown
Matrix: in vitro
Tested at: 600 nM
Setting: 8-mer, flanks averaged, mean of replicates
Reading: higher = stronger binding
For `CAAATCAC`, the E-score was 0.00084.
For `TAAATCTA`, the E-score was 0.206.
With `AAGGAAAC` the E-score was -0.111.
`CCAGGGTA` gave an E-score of -0.255.
For `AAGCCTGA`, the E-score was -0.0358.
With `GCTGTGAA` the E-score was -0.0131.
The E-score of `CCGCAAAA` is reported as 0.0761.
With `GGCCACCA` the E-score was -0.222.

Study 2
Target: FOSL2, bZIP domain (human)
Technique: DHFR protein complementation
Matrix: yeast
Setting: single substitutions, most at no-binding floor
Relative to: wild-type JUN-FOS pair
Reading: higher = stronger binding
Starting sequence: JUN, bZIP domain (human); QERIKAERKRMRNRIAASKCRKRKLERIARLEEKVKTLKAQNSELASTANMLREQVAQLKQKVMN; partner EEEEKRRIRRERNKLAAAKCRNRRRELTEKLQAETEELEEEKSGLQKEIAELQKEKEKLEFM
With `N42G` the binding fitness was -0.907 natural log.
The binding fitness of `K36A` is reported as 0.159 natural log.
For `K39F`, the binding fitness was -0.971 natural log.
With `L52H` the binding fitness was -1.09 natural log.
With `N42V` the binding fitness was 0.183 natural log.
With `Q41V` the binding fitness was -0.0257 natural log.
For `A40R`, the binding fitness was 0.0857 natural log.
`A40W` gave a binding fitness of -0.161 natural log.

Study 3
Target: Hepatocyte nuclear factor 3-beta, forkhead domain (FOXA2, Homo sapiens, UniProt Q9Y261, residues 142-269)
Technique: protein-binding microarray
Molecule type: double-stranded DNA, one strand shown
Matrix: in vitro
Tested at: not given
Setting: k-mer, scored over probes, only values ≥0.25
Reading: higher = stronger binding
Target sequence (chain): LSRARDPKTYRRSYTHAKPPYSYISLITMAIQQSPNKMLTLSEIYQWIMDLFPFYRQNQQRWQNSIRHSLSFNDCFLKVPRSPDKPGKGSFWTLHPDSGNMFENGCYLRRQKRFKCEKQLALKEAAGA
`AATGTTTG` gave an E-score of 0.306.
`AATATTAC` gave an E-score of 0.322.
`CATATCAA` gave an E-score of 0.28.
For `ATTACACA`, the E-score was 0.253.
`ACTAACAT` has an E-score of 0.282.
With `AACAAAGT` the E-score was 0.289.
`TGACATAA` gave an E-score of 0.306.
The E-score of `TACAAATA` is reported as 0.404.

Other studies, line by line
With `CN(C)S(=O)(=O)c1ccc2c(c1)/C(=C/c1cc3c([nH]1)CCCC3)C(=O)N2` the remaining activity was 46.1% (Mitogen-activated protein kinase kinase kinase kinase 4 (MAP4K4, Homo sapiens, UniProt O95819); enzyme activity, inhibitor; 0.5 µM; relative to: control).

Excerpt of the above (study 3):
`AATGTTTG` gave an E-score of 0.306.
`AATATTAC` gave an E-score of 0.322.
`CATATCAA` gave an E-score of 0.28.
For `ATTACACA`, the E-score was 0.253.
